Experimental data from different studies.
± gives the spread as reported.

N#Cc1ccc(-c2cc(=O)c3ccc4[nH]c(C(F)(F)F)nc4c3o2)cc1 — Tmax (ICR mice, plasma; intravenous, 2 mg/kg): ≤ 0.0833 h
Cn1c(=O)oc2ccc(-c3ccc(CC(C#N)NC(=O)C4CNCCCO4)c(F)c3)cc21 (stereo not drawn) — triglycerides increased incidence (human; oral, 20 mg once daily, treatment-related AE, multiple ascending dose): 11.1%
C=C(c1cc(F)c(C(=O)O)c(F)c1)c1cc2c(cc1C)C(C)(C)CCC2(C)C — blood cholesterol (Sprague-Dawley rat, male; oral, 100 mg/kg, 9 h, sesame oil vehicle): 80 ± 14 mg/dL
Cn1cc2cc1C(=O)NCCCC(=O)Nc1cn(C)c(n1)C(=O)Nc1cn(C)c(n1)C(=O)Nc1cc(n(C)c1)C(=O)Nc1cc(n(C)c1)C(=O)NC[C@H](N)CC(=O)Nc1cc(n(C)c1)C(=O)Nc1cc(n(C)c1)C(=O)Nc1cc(n(C)c1)C(=O)N2 — injected dose in plasma (C57BL/6 mice, plasma; intraperitoneal, 120 nmol/animal, 1.5 h): 6.5%
CC(=O)Nc1ccc(C(N)=O)c(F)c1 — AUC (HPLC-MS/MS; human, male, plasma; 25 mg, geometric mean, 1): 700 ng·h/mL
Oc1ccc2ccccc2c1/N=N/c1ccc(/N=N/c2ccccc2)cc1 — MRT(0-inf) (Sprague-Dawley rats both sexes, whole blood; oral, 50 mg/kg): 3.45 h
C#CCOc1ccc(/C=C2\SC(=O)N(CC(=O)NCc3ccccc3)C2=O)cc1 — Kirkwood-Buff integral G2,3 (inverse Kirkwood-Buff integrals; binary solvent mixture; 298.15 K, mole fraction x1 0.55): -365 cm³/mol
CC(C)c1cnc(-c2cc(Cl)ccc2F)cc1Nc1ccncc1C(=O)NC(CO)CO — patients with decreased appetite (patients, phase I monotherapy; oral, dose not given, grade 1): 7.1%
CC(=O)OC[C@H]1O[C@@H](Sc2sc(C(=O)c3ccc(Br)cc3)c(N)c2-c2nc3ccccc3s2)[C@H](OC(C)=O)[C@@H](OC(C)=O)[C@@H]1OC(C)=O — maximum nontoxic concentration (DMEM; 72 h): 100 µg/mL
CC[C@H](C)[C@H](NC(=O)[C@H](N)Cc1ccc(O)cc1)C(=O)N[C@H]1CSSC[C@@H](C(=O)N(C)[C@H](C(N)=O)[C@@H](C)CC)NC(=O)[C@H](CCCNC(=N)N)NC(=O)[C@H](Cc2c[nH]cn2)NC(=O)[C@H](C)NC(=O)CN(C)C(=O)[C@H](Cc2c[nH]c3ccccc23)NC(=O)[C@H](CC(=O)O)NC(=O)[C@H](CCC(N)=O)NC(=O)[C@H](Cc2cn(C)c3ccccc23)NC(=O)[C@H](C(C)C)NC1=O — recovery (UPLC-ESI-MS; human plasma; 0.36 µg/mL, 24 h, 4 °C, autosampler after SPE): 97.5 ± 5.1%
CCCC[C@@H]1NC(=O)[C@@H](NC(=O)[C@H](CCC(=O)O)NC(=O)CNC(=O)CN2CCN(CC(=O)O)CCN(CC(=O)O)CCN(CC(=O)O)CC2)CCCCNC(=O)C[C@@H](C(N)=O)NC(=O)[C@H](C(C)C)NC(=O)[C@@H]2CCCN2C(=O)[C@H](CCCNC(=N)N)NC(=O)CNC(=O)[C@H](Cc2c[nH]c3ccccc23)NC(=O)[C@H](CCCNC(=N)N)NC(=O)[C@@H](Cc2ccccc2)NC(=O)[C@H](Cc2c[nH]cn2)NC(=O)[C@H](CCC(=O)O)NC1=O [gallium-67 labelled] — tissue uptake (C57 mice with B16/F1 melanoma, muscle; intravenous, 0.037 MBq, 2 h): 0.04 ± 0.02 %ID/g
CCCC(CCC(=O)O)NC(=O)c1ccc2c(c1)OCO2 (stereo not drawn) — AUC(0-last) ratio (male Sprague-Dawley rats, plasma; oral, 200 mg/kg of parent drug; baseline: 200 over 20 mg/kg dose): 8.95
NC(COc1ccccc1C(F)(F)F)c1ccccc1 (stereo not drawn) — clearance (male Sprague-Dawley rat, serum; intravenous, 5 mg/kg): 153 mL/min/kg
O=C(O)C1OC(OC2C(COS(=O)(=O)O)OC(OC3C(C(=O)O)OC(OC4C(COS(=O)(=O)O)OC(OC5C(C(=O)O)OC(OC6C(COS(=O)(=O)O)OC(OC7C(C(=O)O)OC(OC8C(COS(=O)(=O)O)OC(OC9C(C(=O)O)OC(OC%10C(COS(=O)(=O)O)OC(OC%11C(C(=O)O)OC(Oc%12ccc([N+](=O)[O-])cc%12)C(O)C%11O)C(NS(=O)(=O)O)C%10O)C(OS(=O)(=O)O)C9O)C(NS(=O)(=O)O)C8O)C(OS(=O)(=O)O)C7O)C(NS(=O)(=O)O)C6O)C(OS(=O)(=O)O)C5O)C(NS(=O)(=O)O)C4O)C(OS(=O)(=O)O)C3O)C(NS(=O)(=O)O)C2OS(=O)(=O)O)C(O)C(O)C1OC1OC(COS(=O)(=O)O)C(O)C(O)C1NS(=O)(=O)O (stereo not drawn) — adrenal to body weight ratio (rats; intravenous, 3600 µg/kg/day for 7 days, day 8): 0.02 ± 0.004
CN1CCC[C@]1(C)/C=C/S(=O)(=O)NC(=O)Nc1c2c(cc3c1CCC3)CCC2 — Tmax (human, plasma; oral, 400 mg, single dose): 1 h
C#CCNC(=O)C(CC(C)(C)F)NC(c1ccc(-c2ccc(S(C)(=O)=O)cc2)cc1)C(F)(F)F (stereo not drawn) — GSH adduct formation (LC-MS UV trace; aqueous buffer; 23 h, pH 7.5, 37 °C, added: GSH 5 mM): < 1%
CCCC[C@H](NC(=O)CNC(=O)CNC(=O)CN1CCN(CC(=O)O)CCN(CC(=O)O)CCN(CC(=O)O)CC1)C(=O)N[C@H]1CC(=O)NCCCC[C@@H](C(N)=O)NC(=O)[C@H](Cc2c[nH]c3ccccc23)NC(=O)[C@H](CCCNC(=N)N)NC(=O)[C@@H](Cc2ccccc2)NC(=O)[C@H](Cc2c[nH]cn2)NC1=O [gallium-67 labelled] — tumour to tissue ratio (female C57 mice, B16/F1 melanoma; intravenous, 0.037 MBq, 2 h; baseline: tumour over kidney): 3.01
CC(C)[C@H](NC(=O)CNC(=O)[C@H](CCC(N)=O)NC(=O)[C@H](C)N)C(=O)O — half-life (human; across phase I studies): < 1 h
Cc1ccc(NCC(=O)N2CCC(F)(F)CC2)cc1S(=O)(=O)N1CCOCC1 — kinetic solubility (water): > 250 µM
O=C(O)C1CN(Cc2ccc(-c3noc(-c4ccc(OCC[18F])c(C(F)(F)F)c4)n3)cc2)C1 — tracer uptake (rat, brain; intravenous, 1 h): 0.017 %ID/g
CCn1cc(/C=C/c2sc3ccccc3[n+]2CC)c2ccccc21 — molar absorptivity (MeOH): 57700 M⁻¹ cm⁻¹
COCC1CN(C2CCN(c3cc(OC)c(Nc4ncc(Br)c(Nc5ccc6c(c5P(C)(C)=O)OCCO6)n4)cc3C)CC2)C1 — grade ≥3 treatment-related diarrhea (human patients; oral, dose not given): 3.7%
Cc1noc(C)c1Cn1cc(N2C(=O)CN(Cc3cccc(OS(=O)(=O)O)c3)C2=O)cn1 — AUC(0-last) (rat Sprague-Dawley male, plasma; oral, 100 mg/kg of parent drug): 72500 ng·h/mL
O=C(O)[C@@H]1C[C@@H](O)CN1C(=O)[C@@H]1CCCN1 — pKa1 (potentiometric titration; water; 40 °C, 0.15 mol/dm3 NaCl): < 2
C[Si](C)(C[C@@H](CN)CC(=O)O)C1CC1 — performance time (neuromuscular coordination; Wistar rat male; oral, 30 mg/kg, 3 h): 154 s
N=C(N)NCCC[C@@H]1NC(=O)[C@H](Cc2c[nH]c3ccccc23)NC(=O)[C@@H](CC2CCCCC2)NC(=O)[C@@H]2CCCN2C(=O)[C@@H](NC(=O)CCc2ccccc2)CCCNC1=O — Tmax (C57BL/6J mice, brain; subcutaneous, 1 mg/kg): 0.504 h
O=C(NC1CC1)N1CCC=C(c2cc3c(Nc4cc5ncsc5cc4F)ncnc3s2)C1 — intrinsic clearance (human liver microsomes; 1 µM): < 12 mL/min/g protein
COc1cc(OC)cc(C2=C3C(C)=C(I)C(/C=C/c4c[nH]c5ccc([N+](=O)[O-])cc45)=[N+]3[B-](F)(F)n3c(/C=C/c4c[nH]c5ccc([N+](=O)[O-])cc45)c(I)c(C)c32)c1 — absorption maximum (DMSO): 712 nm
O=C(O[C@@H]1Cc2c(O)cc(O)cc2O[C@@H]1c1cc(O)c(O)c(O)c1)c1cc(O)c(O)c(O)c1 — clearance ratio (human intestinal cytosol; baseline: sulfation over glucuronidation): 63 fold
CC(C)C[C@@H](NC(=O)[C@H](NC(=O)[C@H]1CCCN1)[C@H](C)O)C(=O)N[C@H](Cc1c[nH]cn1)C(=O)N[C@@H](C(=O)N[C@H](Cc1c[nH]cn1)C(=O)N[C@H](CC(N)=O)C(=O)N[C@H](CCCNC(=N)N)C(=O)N[C@H](CCCNC(=N)N)C(=O)N[C@H](CCCNC(=N)N)C(=O)N[C@H](CCCNC(=N)N)C(=O)N[C@H](CCCNC(=N)N)C(N)=O)[C@H](C)O — AUC(0-t) (Beagle dog, plasma; oral, 20 mg/kg, single dose): 3340 ± 1370 ng·h/mL
CCn1c(=O)n(CCO)c(=O)c2c1nc(/C=C/c1ccc(OC)c(OC)c1)n2C — change in Cmax (healthy humans, plasma; oral, 40 mg, added: rifampin 600 mg/day; baseline: without rifampin): 14%
COc1ccc2cc(-c3ccc(-c4ccc(C)cn4)nc3)oc2c1 — radiative decay rate constant (TCSPC; CHCl3): 0.45 ns⁻¹
O=c1nc(NO)ccn1[C@@H]1O[C@H](CO)[C@@H](O)[C@H]1O — protein level (Western blot, refers to: CYP1A2; rat, normal, liver; oral, 80 mg/kg twice daily, 5 days; baseline: control group): 0.6 fold

For quick reference, copied from above:
CC[C@H](C)[C@H](NC(=O)[C@H](N)Cc1ccc(O)cc1)C(=O)N[C@H]1CSSC[C@@H](C(=O)N(C)[C@H](C(N)=O)[C@@H](C)CC)NC(=O)[C@H](CCCNC(=N)N)NC(=O)[C@H](Cc2c[nH]cn2)NC(=O)[C@H](C)NC(=O)CN(C)C(=O)[C@H](Cc2c[nH]c3ccccc23)NC(=O)[C@H](CC(=O)O)NC(=O)[C@H](CCC(N)=O)NC(=O)[C@H](Cc2cn(C)c3ccccc23)NC(=O)[C@H](C(C)C)NC1=O — recovery (UPLC-ESI-MS; human plasma; 0.36 µg/mL, 24 h, 4 °C, autosampler after SPE): 97.5 ± 5.1%
COc1ccc2cc(-c3ccc(-c4ccc(C)cn4)nc3)oc2c1 — radiative decay rate constant (TCSPC; CHCl3): 0.45 ns⁻¹
O=C(O)[C@@H]1C[C@@H](O)CN1C(=O)[C@@H]1CCCN1 — pKa1 (potentiometric titration; water; 40 °C, 0.15 mol/dm3 NaCl): < 2
CCCC[C@@H]1NC(=O)[C@@H](NC(=O)[C@H](CCC(=O)O)NC(=O)CNC(=O)CN2CCN(CC(=O)O)CCN(CC(=O)O)CCN(CC(=O)O)CC2)CCCCNC(=O)C[C@@H](C(N)=O)NC(=O)[C@H](C(C)C)NC(=O)[C@@H]2CCCN2C(=O)[C@H](CCCNC(=N)N)NC(=O)CNC(=O)[C@H](Cc2c[nH]c3ccccc23)NC(=O)[C@H](CCCNC(=N)N)NC(=O)[C@@H](Cc2ccccc2)NC(=O)[C@H](Cc2c[nH]cn2)NC(=O)[C@H](CCC(=O)O)NC1=O [gallium-67 labelled] — tissue uptake (C57 mice with B16/F1 melanoma, muscle; intravenous, 0.037 MBq, 2 h): 0.04 ± 0.02 %ID/g
CC(=O)OC[C@H]1O[C@@H](Sc2sc(C(=O)c3ccc(Br)cc3)c(N)c2-c2nc3ccccc3s2)[C@H](OC(C)=O)[C@@H](OC(C)=O)[C@@H]1OC(C)=O — maximum nontoxic concentration (DMEM; 72 h): 100 µg/mL
